{"data": "Published values gathered from unrelated publications", "note": "Each numbered part is a random draw from the data of one study; scales do not carry over between parts."}
{"data": "Block 1", "target": "Ras GTPase-activating protein-binding protein 1, RRM domain (G3BP1, Homo sapiens, UniProt Q13283)", "technique": "RNA Bind-n-Seq", "molecule type": "RNA", "matrix": "in vitro", "concentration": "1 µM", "notes": "whole 134-nt RNA, ends assumed", "with": "150 mM KCl", "reference": "input library", "reading": "higher = stronger binding", "sequence of UniProt Q13283 (whole entry, looked up)": "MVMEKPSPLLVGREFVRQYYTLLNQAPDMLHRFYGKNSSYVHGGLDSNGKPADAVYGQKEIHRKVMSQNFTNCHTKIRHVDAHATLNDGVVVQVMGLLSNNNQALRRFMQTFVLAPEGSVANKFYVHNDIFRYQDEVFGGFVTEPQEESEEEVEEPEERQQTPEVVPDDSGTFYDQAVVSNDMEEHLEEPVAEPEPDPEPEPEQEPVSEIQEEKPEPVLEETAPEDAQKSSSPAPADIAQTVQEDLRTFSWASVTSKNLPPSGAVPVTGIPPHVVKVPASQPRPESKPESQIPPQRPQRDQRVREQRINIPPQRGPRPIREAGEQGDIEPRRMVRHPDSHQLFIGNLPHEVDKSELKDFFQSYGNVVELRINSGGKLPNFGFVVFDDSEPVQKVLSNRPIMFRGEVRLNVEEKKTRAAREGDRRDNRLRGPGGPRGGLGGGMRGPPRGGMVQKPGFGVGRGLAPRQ"}
{"Sequence": "GGGAGUUCUACAGUCCGACGAUCCUGUGCUACACAUCGUAUGUACCGAAUCGGGAAAAAAAGGAAAAAAAGGGAAAAAAAGGGGAAAGUAUUAUGUUACGCCGUUCGGAUCUGUGGAAUUCUCGGGUGUCAAGG", "log2 enrichment": 0.0998}
{"Sequence": "GGGAGUUCUACAGUCCGACGAUCAAGUCCUGUGCUACACAUCGUAUGUACCGAAUCGGAAAAAAAGGAAAAAAAGGUGGAAAGUAUUAUGUUACGCCGUUCGGAUCUGCACUUUGGAAUUCUCGGGUGUCAAGG", "log2 enrichment": 0.044}
{"Sequence": "GGGAGUUCUACAGUCCGACGAUCGUCCUGUGCUACACAUCGUAUGUACCGAAUCGGGGUUUGGGGUGGGGUUUUUUUGGGGAAAGUAUUAUGUUACGCCGUUCGGAUCUGCACUGGAAUUCUCGGGUGUCAAGG", "log2 enrichment": 0.903}
{"Sequence": "GGGAGUUCUACAGUCCGACGAUCCAAGUCCUGUGCUACACAUCGUAUGUACCGAAUCGGUUUUUUUGGUGGUUUUUGGAAAGUAUUAUGUUACGCCGUUCGGAUCUGCACUUCUGGAAUUCUCGGGUGUCAAGG", "log2 enrichment": -0.389}
{"data": "Block 2", "target": "Interferon regulatory factor 3, full length, phosphomimetic (IRF3, Homo sapiens, UniProt Q14653, residues 1-427, S386D/S396D/S398D/S402D/T404D/S405D)", "technique": "protein-binding microarray", "molecule type": "double-stranded DNA, one strand shown", "matrix": "in vitro", "concentration": "2540 nM top", "notes": "60-bp whole probe", "with": "salmon DNA 0.4 mg/ml", "reference": "random background probes", "reading": "higher = stronger binding", "Construct (chain)": "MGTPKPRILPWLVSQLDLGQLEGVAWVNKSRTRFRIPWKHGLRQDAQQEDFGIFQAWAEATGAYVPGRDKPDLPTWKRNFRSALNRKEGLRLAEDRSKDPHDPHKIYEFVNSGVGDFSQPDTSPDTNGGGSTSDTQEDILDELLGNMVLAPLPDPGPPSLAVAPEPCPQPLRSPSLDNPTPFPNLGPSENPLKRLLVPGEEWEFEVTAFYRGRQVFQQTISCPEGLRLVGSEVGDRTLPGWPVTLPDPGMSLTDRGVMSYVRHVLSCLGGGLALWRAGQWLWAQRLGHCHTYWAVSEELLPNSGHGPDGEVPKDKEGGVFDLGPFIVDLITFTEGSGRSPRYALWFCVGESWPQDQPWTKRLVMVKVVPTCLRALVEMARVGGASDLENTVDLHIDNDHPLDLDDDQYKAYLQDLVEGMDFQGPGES"}
{"Sequence": "GCCTAGCACGACGGAATCCTTCTCCTGACGTGCTAGGTCTTGATTCGCTTGACGCTGCTG", "fitted relative affinity [z-score]": 3.43}
{"Sequence": "GCCTAGCACGACGATTTCGGTACTGGAGACGTGCTAGTCTTGATTCGCTTGACGCTGCTG", "fitted relative affinity [z-score]": 4.05}
{"Sequence": "GCCTAGCACTTTGATATCGGGTTTCGATTAGTGCTAGTCTTGATTCGCTTGACGCTGCTG", "fitted relative affinity [z-score]": 2.07}
{"Sequence": "GCCTAGCACTTAGCTTTCGGGACTGGATTAGTGCTAGTCTTGATTCGCTTGACGCTGCTG", "fitted relative affinity [z-score]": 1.57}
{"data": "Block 3", "target": "PABPC1L2, full length, GST fusion (mouse, UniProt A0ABA7IW68)", "technique": "RNAcompete", "molecule type": "RNA", "matrix": "in vitro", "concentration": "20 nM", "notes": "7-mer, probes averaged, single round", "reference": "mean of 7-mers", "reading": "higher = stronger binding", "Target sequence (chain)": "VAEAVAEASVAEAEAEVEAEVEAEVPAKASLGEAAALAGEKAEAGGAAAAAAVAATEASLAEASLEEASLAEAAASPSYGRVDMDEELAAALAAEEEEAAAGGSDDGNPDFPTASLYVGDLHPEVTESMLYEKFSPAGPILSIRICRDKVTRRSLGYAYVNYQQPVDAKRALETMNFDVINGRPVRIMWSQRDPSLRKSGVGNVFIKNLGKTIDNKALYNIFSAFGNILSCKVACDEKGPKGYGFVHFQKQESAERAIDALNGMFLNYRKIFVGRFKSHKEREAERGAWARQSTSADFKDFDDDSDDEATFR"}
{"Sequence": "UACGAUG", "7-mer Z-score": -0.159}
{"Sequence": "CGCUAAG", "7-mer Z-score": -0.237}
{"Sequence": "AGUGCGA", "7-mer Z-score": -0.00652}
{"Sequence": "CCAGCGC", "7-mer Z-score": -0.262}
{"data": "Mixed results"}
{"Substance": "PhoQ, residues 284 288 289 292 302 303 SCKMEA", "target": "PhoP, residues 12 14 15 18 19 STWGI (Escherichia coli, UniProt P23836)", "test": "Sort-seq, item: YFP reporter", "system": "E. coli", "setting": "PhoQ-PhoP variant library, with: 10 µM Mg2+", "scale": "reference: high Mg2+ state, higher = stronger signaling", "quantity": "fold induction", "result": 7.43}
{"note": "For quick reference, copied from above (block 2):"}
{"Sequence": "GCCTAGCACGACGATTTCGGTACTGGAGACGTGCTAGTCTTGATTCGCTTGACGCTGCTG", "fitted relative affinity [z-score]": 4.05}
